Measurements from different studies.
Numbered parts are unrelated; each lists some results of a single study. Positions count from the first letter of the parent shown.
Chain of UniProt Q13705 (whole entry, looked up): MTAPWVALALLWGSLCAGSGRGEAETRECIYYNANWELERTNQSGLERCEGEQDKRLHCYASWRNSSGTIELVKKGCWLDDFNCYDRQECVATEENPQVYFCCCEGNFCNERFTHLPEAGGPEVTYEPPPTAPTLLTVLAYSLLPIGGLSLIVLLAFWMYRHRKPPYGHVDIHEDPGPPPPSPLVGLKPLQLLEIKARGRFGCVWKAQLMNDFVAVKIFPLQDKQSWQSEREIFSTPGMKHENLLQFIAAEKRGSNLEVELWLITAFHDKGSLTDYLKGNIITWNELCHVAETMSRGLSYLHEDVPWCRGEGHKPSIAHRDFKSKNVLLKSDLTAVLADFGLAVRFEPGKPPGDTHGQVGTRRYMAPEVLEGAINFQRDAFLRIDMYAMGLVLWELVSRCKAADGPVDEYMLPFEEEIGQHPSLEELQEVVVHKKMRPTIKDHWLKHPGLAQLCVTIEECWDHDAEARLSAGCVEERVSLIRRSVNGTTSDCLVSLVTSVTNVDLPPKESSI
Chain of UniProt P09619 (whole entry, looked up): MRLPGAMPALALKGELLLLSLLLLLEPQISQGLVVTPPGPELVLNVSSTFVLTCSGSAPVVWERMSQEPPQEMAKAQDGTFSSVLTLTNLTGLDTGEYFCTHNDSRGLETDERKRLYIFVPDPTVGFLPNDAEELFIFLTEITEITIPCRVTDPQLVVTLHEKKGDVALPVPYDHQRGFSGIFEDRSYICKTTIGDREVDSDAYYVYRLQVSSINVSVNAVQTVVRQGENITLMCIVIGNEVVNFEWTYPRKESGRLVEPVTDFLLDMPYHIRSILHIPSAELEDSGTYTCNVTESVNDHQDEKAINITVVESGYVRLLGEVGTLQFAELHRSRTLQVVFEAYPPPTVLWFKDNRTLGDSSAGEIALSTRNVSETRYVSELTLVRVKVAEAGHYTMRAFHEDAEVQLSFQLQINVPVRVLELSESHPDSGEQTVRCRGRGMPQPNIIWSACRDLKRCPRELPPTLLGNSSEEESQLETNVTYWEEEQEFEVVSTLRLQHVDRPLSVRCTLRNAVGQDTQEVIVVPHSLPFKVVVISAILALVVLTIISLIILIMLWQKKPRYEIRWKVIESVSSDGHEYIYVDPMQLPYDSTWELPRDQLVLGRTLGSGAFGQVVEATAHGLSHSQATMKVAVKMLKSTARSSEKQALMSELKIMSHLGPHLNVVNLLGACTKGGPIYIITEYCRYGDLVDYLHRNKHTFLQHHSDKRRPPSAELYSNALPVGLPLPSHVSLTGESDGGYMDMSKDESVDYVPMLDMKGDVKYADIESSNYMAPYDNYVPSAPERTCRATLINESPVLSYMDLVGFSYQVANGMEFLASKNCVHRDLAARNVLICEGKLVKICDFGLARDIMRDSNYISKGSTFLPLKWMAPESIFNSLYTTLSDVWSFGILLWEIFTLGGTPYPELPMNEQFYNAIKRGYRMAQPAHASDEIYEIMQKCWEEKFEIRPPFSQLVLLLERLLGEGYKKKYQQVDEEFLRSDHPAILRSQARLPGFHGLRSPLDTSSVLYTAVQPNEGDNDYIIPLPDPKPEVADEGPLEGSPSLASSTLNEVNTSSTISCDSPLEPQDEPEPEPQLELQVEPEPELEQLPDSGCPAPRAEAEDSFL
Chain of UniProt P51957 (whole entry, looked up): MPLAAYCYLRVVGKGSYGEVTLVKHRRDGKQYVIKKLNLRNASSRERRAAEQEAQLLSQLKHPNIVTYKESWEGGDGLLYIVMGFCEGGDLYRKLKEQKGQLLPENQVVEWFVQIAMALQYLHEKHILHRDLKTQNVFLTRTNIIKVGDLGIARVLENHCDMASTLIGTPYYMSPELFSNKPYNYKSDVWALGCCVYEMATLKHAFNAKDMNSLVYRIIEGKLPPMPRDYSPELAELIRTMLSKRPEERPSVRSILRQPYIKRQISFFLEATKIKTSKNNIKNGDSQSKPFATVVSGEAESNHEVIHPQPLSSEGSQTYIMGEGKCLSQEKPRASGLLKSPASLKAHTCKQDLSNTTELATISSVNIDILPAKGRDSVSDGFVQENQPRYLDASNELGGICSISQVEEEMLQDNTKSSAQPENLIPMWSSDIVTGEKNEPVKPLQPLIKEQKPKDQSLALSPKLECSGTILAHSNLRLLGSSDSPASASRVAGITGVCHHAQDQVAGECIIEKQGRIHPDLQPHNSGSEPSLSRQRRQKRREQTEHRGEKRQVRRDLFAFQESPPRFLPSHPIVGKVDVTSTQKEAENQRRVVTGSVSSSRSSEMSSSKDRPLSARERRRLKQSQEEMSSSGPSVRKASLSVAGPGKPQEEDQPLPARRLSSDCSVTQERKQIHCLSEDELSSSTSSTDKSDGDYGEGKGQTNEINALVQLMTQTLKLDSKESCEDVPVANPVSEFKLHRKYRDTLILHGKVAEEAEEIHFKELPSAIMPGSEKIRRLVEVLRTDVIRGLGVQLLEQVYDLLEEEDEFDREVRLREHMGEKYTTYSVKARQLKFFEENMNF
Chain of UniProt P10721 (whole entry, unmodified, looked up): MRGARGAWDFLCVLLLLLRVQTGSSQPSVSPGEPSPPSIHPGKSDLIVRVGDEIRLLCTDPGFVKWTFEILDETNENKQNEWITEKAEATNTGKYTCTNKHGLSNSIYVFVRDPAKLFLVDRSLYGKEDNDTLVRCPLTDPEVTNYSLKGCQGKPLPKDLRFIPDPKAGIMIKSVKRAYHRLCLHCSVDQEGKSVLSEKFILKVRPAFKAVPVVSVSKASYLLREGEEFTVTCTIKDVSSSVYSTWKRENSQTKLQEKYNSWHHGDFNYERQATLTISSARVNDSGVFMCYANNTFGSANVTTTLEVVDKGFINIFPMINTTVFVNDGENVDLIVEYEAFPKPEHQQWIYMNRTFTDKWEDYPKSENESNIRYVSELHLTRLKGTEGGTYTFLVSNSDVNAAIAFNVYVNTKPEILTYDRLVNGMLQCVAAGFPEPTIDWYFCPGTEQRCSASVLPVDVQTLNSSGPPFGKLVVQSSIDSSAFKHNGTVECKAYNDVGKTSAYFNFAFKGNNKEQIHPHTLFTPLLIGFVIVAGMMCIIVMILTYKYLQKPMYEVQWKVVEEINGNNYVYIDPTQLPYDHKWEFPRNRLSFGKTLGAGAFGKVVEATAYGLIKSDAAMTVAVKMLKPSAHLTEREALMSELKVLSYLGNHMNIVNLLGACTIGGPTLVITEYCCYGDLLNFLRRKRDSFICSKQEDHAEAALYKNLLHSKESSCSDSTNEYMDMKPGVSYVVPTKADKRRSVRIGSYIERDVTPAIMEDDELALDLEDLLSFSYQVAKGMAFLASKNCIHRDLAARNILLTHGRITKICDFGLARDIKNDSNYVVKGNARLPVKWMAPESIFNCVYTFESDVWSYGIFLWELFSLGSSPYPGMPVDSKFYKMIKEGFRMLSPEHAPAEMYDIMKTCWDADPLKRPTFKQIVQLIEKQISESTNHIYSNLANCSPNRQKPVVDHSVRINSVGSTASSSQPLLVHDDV
Chain of UniProt Q59H18 (whole entry, looked up): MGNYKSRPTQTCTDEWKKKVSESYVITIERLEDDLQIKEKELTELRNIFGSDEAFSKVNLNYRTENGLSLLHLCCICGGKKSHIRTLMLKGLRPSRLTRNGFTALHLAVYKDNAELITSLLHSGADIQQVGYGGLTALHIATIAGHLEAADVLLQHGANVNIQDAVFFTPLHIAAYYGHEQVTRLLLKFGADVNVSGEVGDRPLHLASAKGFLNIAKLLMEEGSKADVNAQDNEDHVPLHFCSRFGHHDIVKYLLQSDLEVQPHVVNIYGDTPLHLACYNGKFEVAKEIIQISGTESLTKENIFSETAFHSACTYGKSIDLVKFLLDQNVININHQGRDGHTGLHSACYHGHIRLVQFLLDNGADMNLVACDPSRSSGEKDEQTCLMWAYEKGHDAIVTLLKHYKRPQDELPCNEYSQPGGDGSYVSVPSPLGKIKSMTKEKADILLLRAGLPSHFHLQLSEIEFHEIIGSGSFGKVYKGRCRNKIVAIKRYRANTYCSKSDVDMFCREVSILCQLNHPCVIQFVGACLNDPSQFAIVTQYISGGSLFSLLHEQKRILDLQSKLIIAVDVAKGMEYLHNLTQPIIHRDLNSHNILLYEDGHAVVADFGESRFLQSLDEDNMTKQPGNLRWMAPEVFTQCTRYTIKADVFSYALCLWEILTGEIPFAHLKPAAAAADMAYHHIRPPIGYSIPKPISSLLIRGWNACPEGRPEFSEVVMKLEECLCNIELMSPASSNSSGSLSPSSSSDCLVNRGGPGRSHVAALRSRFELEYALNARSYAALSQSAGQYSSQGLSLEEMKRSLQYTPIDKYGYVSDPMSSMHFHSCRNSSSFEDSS
Chain of UniProt Q16566 (whole entry, looked up): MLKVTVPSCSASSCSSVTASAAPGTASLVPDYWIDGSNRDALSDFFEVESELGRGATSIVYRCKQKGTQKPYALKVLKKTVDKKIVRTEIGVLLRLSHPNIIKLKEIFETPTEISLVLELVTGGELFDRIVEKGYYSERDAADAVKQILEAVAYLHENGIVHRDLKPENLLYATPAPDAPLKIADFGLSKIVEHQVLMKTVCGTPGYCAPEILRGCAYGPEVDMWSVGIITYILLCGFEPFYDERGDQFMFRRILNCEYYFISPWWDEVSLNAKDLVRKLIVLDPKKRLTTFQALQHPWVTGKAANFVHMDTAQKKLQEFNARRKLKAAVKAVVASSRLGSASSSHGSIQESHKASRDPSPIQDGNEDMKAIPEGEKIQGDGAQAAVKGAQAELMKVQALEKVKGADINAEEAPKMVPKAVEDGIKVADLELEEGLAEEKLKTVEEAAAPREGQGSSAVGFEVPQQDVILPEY

Sample 1 — species: mouse; medium: microsomes or S9; tested at: 2 µM; time: 0.5 h
`CCOC(=O)C(C)n1nc(-n2cccn2)ccc1=O` (stereo not shown) has a remaining compound of 0%.
For `c1ccc2c(c1)oc1c(N3CCN(Cc4ccc5c(c4)OCO5)CC3)ncnc12`, the remaining compound was 14.2%.
`COc1ccc(Cl)cc1-c1ccc2c(c1)c(C#N)cn2-c1ccc(F)cc1` gave a remaining compound of 77%.

Sample 2 — Variant: R132Q; method: DHFR PCA, deep sequencing; medium: yeast; reference: wild-type fitted maximum; direction: higher = stronger binding
Target: ABI1, truncated, D143A, DHFR fusion (Arabidopsis thaliana)
Setting: methotrexate growth selection, single substitutions
Parent: PYL1, truncated, DHFR fusion (Arabidopsis thaliana); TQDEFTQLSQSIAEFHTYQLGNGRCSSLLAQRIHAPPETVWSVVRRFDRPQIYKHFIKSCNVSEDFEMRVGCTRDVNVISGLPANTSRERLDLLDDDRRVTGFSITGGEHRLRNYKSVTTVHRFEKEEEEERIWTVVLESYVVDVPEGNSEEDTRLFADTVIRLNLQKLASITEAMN
together with: (+)-ABA 0.0091 µM — “relative binding score”: 40.9%.
The “relative binding score” was 115% (together with: (+)-ABA 710 µM).
It gave 109% for “relative binding score” (together with: (+)-ABA 2500 µM).
For together with: (+)-ABA 4.8 µM: “relative binding score” read 92.4%.
together with: (+)-ABA 58 µM — “relative binding score”: 106%.
It gave 100% for “relative binding score” (together with: (+)-ABA 17 µM).

Sample 3 — method: RNA Bind-n-Seq; form: RNA; medium: in vitro; tested at: 20 nM; setting: 6-mer, flanks averaged, single round; together with: 150 mM KCl; reference: input library; direction: higher = stronger binding
Target: TAR DNA-binding protein 43, full length, His tag (TARDBP, Homo sapiens, UniProt Q13148, residues 1-414)
`CGGUGG` — result for “6-mer enrichment (R)”: 3.2.
For `AUGUAA`, “6-mer enrichment (R)” read 0.701.
`CUAGAA`: “6-mer enrichment (R)” 0.691.
For `UGGAAG`, “6-mer enrichment (R)” read 1.59.
Under “6-mer enrichment (R)”, `AAGUGA` is recorded as 0.843.
`GCAAUA` — result for “6-mer enrichment (R)”: 0.71.
`GUGCCC`: “6-mer enrichment (R)” 0.788.
For `UUGGCA`, “6-mer enrichment (R)” read 0.802.

Sample 4 — method: competition with immobilised ligand; tested at: 1 µM
SMILES: N#Cc1ccc(Nc2ccc3[nH]c(=O)[nH]c3c2)c(Cl)c1
For MAP kinase-activated protein kinase 2 (MAPKAPK2, Homo sapiens, UniProt P49137); cell-free assay: remaining binding read 100%.
Epidermal growth factor receptor (EGFR, Homo sapiens, UniProt P00533, del747-752/P753S); cell-free assay — remaining binding: 62%.
It gave 99% for remaining binding (Mast/stem cell growth factor receptor Kit (KIT, Homo sapiens, UniProt P10721, D816H); cell-free assay).
For Casein kinase I isoform epsilon (CSNK1E, Homo sapiens, UniProt P49674); cell-free assay: remaining binding read 94%.
For Myosin-IIIb (MYO3B, Homo sapiens, UniProt Q8WXR4); binding: remaining binding read 100%.
It gave 100% for remaining binding (Tyrosine-protein kinase Fer (FER, Homo sapiens, UniProt P16591); cell-free assay).
It gave 100% for remaining binding (Calcium/calmodulin-dependent protein kinase type IV (CAMK4, Homo sapiens, UniProt Q16566); cell-free assay).
For Tyrosine-protein kinase ABL1, phosphorylated (ABL1, Homo sapiens, UniProt P00519, Y253F); cell-free assay: remaining binding read 87%.
Receptor-type tyrosine-protein kinase FLT3 (FLT3, Homo sapiens, UniProt P36888, K663Q); cell-free assay — remaining binding: 92%.
Serine/threonine-protein kinase Nek4 (NEK4, Homo sapiens, UniProt P51957); cell-free assay — remaining binding: 100%.
Serine/threonine-protein kinase TNNI3K (TNNI3K, Homo sapiens, UniProt Q59H18); cell-free assay — remaining binding: 65%.
It gave 100% for remaining binding (Phosphatidylinositol 3-kinase catalytic subunit type 3 (PIK3C3, Homo sapiens, UniProt Q8NEB9); cell-free assay).
The remaining binding was 100% (Rho-associated protein kinase 2 (ROCK2, Homo sapiens, UniProt O75116); cell-free assay).
The remaining binding was 100% (Receptor-type tyrosine-protein kinase FLT3 (FLT3, Homo sapiens, UniProt P36888); cell-free assay).
For Activin receptor type-2B (ACVR2B, Homo sapiens, UniProt Q13705); binding: remaining binding read 81%.
Platelet-derived growth factor receptor beta (PDGFRB, Homo sapiens, UniProt P09619); cell-free assay — remaining binding: 100%.

Other studies, line by line
`IQGAP1 (Homo sapiens, UniProt P46940)`: cross-linked residues “K774 to E14” (MYL6 (Homo sapiens, UniProt P60660); cross-linking MS; cell fractions; together with: DMTMM).
`CNc1nc(Nc2ccc(C(=O)N3CCOCC3)cc2OC)nc2[nH]cc(Cl)c12`: “nuclear SOX9 intensity” 82.7 % of DMSO (mouse MPNST tumor cells; high-content immunofluorescence imaging, refers to: nuclear SOX9; 10 µM, 12 h, mean of 2 replicates; reference: DMSO control, higher = more nuclear SOX9).
For `UTP14A (Homo sapiens, UniProt Q9BVJ6)`, cross-linked residues read “E131 to K445” (DCAF13 (Homo sapiens, UniProt Q9NV06); cross-linking MS; cell fractions; together with: DMTMM).
`C[C@@H](O)CNC(C)(C)CC(=O)N[C@@H]1CCc2ccccc2N(Cc2ccc(-c3ccccc3-c3nn[nH]n3)cc2)C1=O` — result for “nuclear SOX9 intensity”: 93.4 % of DMSO (mouse MPNST tumor cells; high-content immunofluorescence imaging, refers to: nuclear SOX9; 10 µM, 12 h, mean of 2 replicates; reference: DMSO control, higher = more nuclear SOX9).
